Measured values gathered from unrelated publications.
Each numbered part is a random draw from the data of one study; scales do not carry over between parts.

Sample 1
Target: Ras GTPase-activating protein-binding protein 1, full length (G3BP1, Homo sapiens, UniProt Q13283)
UniProt Q13283, sequence (whole entry, looked up): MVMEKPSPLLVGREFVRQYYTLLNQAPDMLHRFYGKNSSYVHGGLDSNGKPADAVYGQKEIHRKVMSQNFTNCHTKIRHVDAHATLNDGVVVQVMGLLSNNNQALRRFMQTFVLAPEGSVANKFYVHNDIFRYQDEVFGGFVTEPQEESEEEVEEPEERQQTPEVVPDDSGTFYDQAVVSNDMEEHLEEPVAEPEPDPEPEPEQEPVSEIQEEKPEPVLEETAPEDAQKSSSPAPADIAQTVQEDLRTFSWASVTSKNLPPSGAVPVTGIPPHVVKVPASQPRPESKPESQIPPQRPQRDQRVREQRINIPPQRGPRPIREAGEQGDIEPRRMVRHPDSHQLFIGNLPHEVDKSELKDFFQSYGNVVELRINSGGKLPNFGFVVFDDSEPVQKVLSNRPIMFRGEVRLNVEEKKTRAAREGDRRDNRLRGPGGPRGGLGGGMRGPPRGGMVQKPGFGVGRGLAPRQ
Technique: RNA Bind-n-Seq
Molecule type: RNA
Matrix: in vitro
Tested at: 200 nM
Setting: whole 134-nt RNA, ends assumed
With: 150 mM LiCl
Reference: input library
Direction: higher = stronger binding
Library: 7-deaza-guanosine replaces G
Oligonucleotide | log2 enrichment
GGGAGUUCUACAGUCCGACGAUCCAAGUCCUGUGCUACACAUCGUAUGUACCGAAUCGGGAGGGAAAGGGAAAAAGGGAAAGUAUUAUGUUACGCCGUUCGGAUCUGCACUUCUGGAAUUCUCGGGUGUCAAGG | 0.214
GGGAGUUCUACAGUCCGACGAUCCUCAAGUCCUGUGCUACACAUCGUAUGUACCGAAUCGGGGCGGGCGGGCGGGGAAAGUAUUAUGUUACGCCGUUCGGAUCUGCACUUCCAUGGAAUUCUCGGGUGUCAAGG | 0.0567
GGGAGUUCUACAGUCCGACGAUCCAAGUCCUGUGCUACACAUCGUAUGUACCGAAUCGUGUGUGUGUGUGUGUGUGUGAAAGUAUUAUGUUACGCCGUUCGGAUCUGCACUUCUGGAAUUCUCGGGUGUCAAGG | -0.641
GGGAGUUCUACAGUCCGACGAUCUGGGAGGUGGAUUUUGUUUAUUUUUUUAGCUCAUUUCCAGGGGUGGGAAUUUUUUUUUAAUAUGUGUCAUGAAUAAAGUUGUUUUUGAAUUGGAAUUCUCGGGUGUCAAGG | 0.0207
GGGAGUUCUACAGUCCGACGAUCAAGUCCUGUGCUACACAUCGUAUGUACCGAAUCGGGAAAGGGGAAAGGGGAAAGGGGAAAGUAUUAUGUUACGCCGUUCGGAUCUGCACUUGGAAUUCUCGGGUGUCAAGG | 1.02
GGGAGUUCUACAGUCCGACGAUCACCAUGCAGGUGGGCAUCUUUGGGAAGUGGGGCAAGGGAGGGAUAGGGAGGGGGGUAACACUUUGGGAACAGGUGGUCCCAGGUCGUUUCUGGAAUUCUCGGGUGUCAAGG | 0.422
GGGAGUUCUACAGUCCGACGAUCUCAAGUCCUGUGCUACACAUCGUAUGUACCGAAUCGGGUUUGGGUGGGUUUGGGAAAGUAUUAUGUUACGCCGUUCGGAUCUGCACUUCCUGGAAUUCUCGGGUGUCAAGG | -0.344
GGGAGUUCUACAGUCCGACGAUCCAAGUCCUGUGCUACACAUCGUAUGUACCGAAUCGGGUUUGGGUUUGGGGUUUGGAAAGUAUUAUGUUACGCCGUUCGGAUCUGCACUUCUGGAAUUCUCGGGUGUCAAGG | -0.932
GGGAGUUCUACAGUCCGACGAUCACCAUGCAGGUGGGCCUCUUUGGGAAGUGGGGCAAGGGGGGGAUAGGGAGGGGGGUAACACUUUGGGAACAGGUGGUCCCAGGUCGUUUCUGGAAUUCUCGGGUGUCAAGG | -0.11
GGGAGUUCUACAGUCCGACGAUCCAAGUCCUGUGCUACACAUCGUAUGUACCGAAUCGGAAAAAGGAAAAAAAGGUGGAAAGUAUUAUGUUACGCCGUUCGGAUCUGCACUUCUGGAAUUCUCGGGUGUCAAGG | -1.1
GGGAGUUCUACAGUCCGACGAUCAAGUCCUGUGCUACACAUCGUAUGUACCGAAUCGGGGUUUUGGUUUUGGUUUUGGGGAAAGUAUUAUGUUACGCCGUUCGGAUCUGCACUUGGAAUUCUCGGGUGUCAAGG | -0.124

Sample 2
Target: PABPC1L2, full length, GST fusion (mouse, UniProt A0ABA7IW68)
Technique: RNAcompete
Molecule type: RNA
Matrix: in vitro
Tested at: 20 nM
Setting: 7-mer, probes averaged, single round
Reference: mean of 7-mers
Direction: higher = stronger binding
Target sequence (chain): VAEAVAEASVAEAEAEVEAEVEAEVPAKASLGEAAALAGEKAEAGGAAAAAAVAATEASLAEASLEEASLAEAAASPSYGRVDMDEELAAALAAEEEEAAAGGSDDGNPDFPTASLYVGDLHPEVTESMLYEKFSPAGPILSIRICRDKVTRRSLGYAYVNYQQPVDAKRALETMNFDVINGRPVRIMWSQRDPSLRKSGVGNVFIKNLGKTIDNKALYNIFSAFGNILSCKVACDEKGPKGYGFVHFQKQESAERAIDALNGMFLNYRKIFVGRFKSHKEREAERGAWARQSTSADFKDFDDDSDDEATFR
Oligonucleotide | 7-mer Z-score
GAUGCGA | -0.00652
GUAAGAA | 0.138
AUCACCA | -0.0844
UGACUGC | -0.286
CCGAGUA | 0.0207
GCUGUUA | -0.208
CACAUUU | -0.104
CCUCUAC | -0.356
GCGGCUU | -0.0047
CUAAAUG | 0.0877
CUGCCCA | -0.376
UAGACAA | 0.24
GUGUAAA | 0.878
CCGUCCC | -0.474
ACUCAGC | -0.121
GCAGUAU | -0.208
GCGCAGC | -0.0863
GGGCCUU | -0.24
CACAAUG | -0.106
UGGUCGA | -0.00833
UGUCCGG | -0.264
GCCAGUA | -0.159
UUUGCAC | -0.345
CCCCACG | -0.436
CUACGUG | -0.132

Sample 3
Target: Interferon regulatory factor 7, full length, phosphomimetic (IRF7, Homo sapiens, UniProt Q92985, residues 1-503, S101K/S471D/S472D/S475D/S476D/S477D/S483D/S484D/S487D)
UniProt Q92985, sequence (whole entry, unmodified, looked up): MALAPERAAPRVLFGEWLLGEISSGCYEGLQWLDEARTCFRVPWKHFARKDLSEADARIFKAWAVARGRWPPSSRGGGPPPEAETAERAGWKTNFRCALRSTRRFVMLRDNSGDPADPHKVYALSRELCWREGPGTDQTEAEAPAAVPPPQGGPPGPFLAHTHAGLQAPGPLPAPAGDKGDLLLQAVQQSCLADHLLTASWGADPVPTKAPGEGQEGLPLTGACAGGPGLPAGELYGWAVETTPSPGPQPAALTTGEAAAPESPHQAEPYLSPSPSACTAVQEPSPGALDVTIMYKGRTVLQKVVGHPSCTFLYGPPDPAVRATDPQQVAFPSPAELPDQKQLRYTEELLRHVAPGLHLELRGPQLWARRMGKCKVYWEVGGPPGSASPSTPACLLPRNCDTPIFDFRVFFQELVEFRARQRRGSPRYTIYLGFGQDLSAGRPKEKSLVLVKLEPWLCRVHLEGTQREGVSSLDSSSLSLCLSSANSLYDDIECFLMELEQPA
Technique: protein-binding microarray
Molecule type: double-stranded DNA, one strand shown
Matrix: in vitro
Tested at: 250 nM
Setting: 60-bp whole probe
With: salmon DNA 0.4 mg/ml
Reference: random background probes
Direction: higher = stronger binding
Shared flanks, not repeated: GCCTAGCAC … GTCTTGATTCGCTTGACGCTGCTG
Oligonucleotide | log fluorescence
TTAGATTCCAGTTTCGGTTAGTGCTAG | 10 z-score
GACGAACTGGGGACTGGCGACGTGCTA | -0.822 z-score
GACGGTATCCTTAACCTGACGTGCTAG | 0.328 z-score
GACGGACTGGGGTATCGGGTCGTGCTA | -0.43 z-score
TTAGGAATCGGACTGGGTTAGTGCTAG | -0.0958 z-score
GACGGTCTCGGACAGGGGACGTGCTAG | 0.0564 z-score
TTAGGTATCGGGTTTCGGTTAGTGCTA | 7.39 z-score
GACGGACTGGGGTTACGGGACGTGCTA | -0.774 z-score
GACCGACTGGGTATCGGGACGTGCTAG | 0.0726 z-score
TCATCTTTCCTCACCATACTGTGCTAG | 1.97 z-score
TTAAGTATCGGGTTTCGGTTAGTGCTA | 7.56 z-score
TTAGGTCTCCTACTGCTGTAGTGCTAG | -0.444 z-score
TTAGGTTTCGACATTCGGTTAGTGCTA | 7.74 z-score
GACGATATCGGTATCGGGACGTGCTAG | 0.181 z-score
TCACTTATTGCTTCCTCACTGTGCTAG | 0.709 z-score
TTAGGTCTCGTTCTCGGTTAGTGCTAG | 2.92 z-score
TCATTCCTGATCTCTGGTCTTGTGCTA | 0.92 z-score
GACGGTATCCTTATGCTGACGTGCTAG | -0.121 z-score
GACGGTTCCGGTGTCGGGACGTGCTAG | 0.0267 z-score
TTAGGTTTCGTTTCCCTTTAGTGCTAG | 13.7 z-score
TTAAGTTTCGACTTTCGGTTAGTGCTA | 12.3 z-score
GCCGGACTGGACACTGGGGACGTGCTA | -0.881 z-score
CTAGATATCAGACTGGATTAGTGCTAG | 0.587 z-score
TTGGGTTTCGGACTGGGTTAGTGCTAG | 3.09 z-score
GACGAATTCGGGTATCGAGACGTGCTA | 0.481 z-score

Sample 4
Target: RNA binding protein fox-1 homolog 2, RRM domain, GST-SBP tag (RBFOX2, Homo sapiens, UniProt O43251-10, residues 100-194)
Technique: RNA Bind-n-Seq
Molecule type: RNA
Matrix: in vitro
Tested at: 365 nM
Setting: natural RNA segment, single round, ends assumed
Reference: no-protein control
Direction: higher = stronger binding
Construct (chain): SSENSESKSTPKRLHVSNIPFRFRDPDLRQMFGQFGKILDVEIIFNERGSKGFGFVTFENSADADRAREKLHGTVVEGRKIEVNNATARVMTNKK
Oligonucleotide | RBNS enrichment (R)
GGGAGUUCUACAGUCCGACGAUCUUUGGGGACAGCCCAGUUGCCAUUGUGGGACAGAACCCCAGUCCUGCGUUUCAGGGACAUGGGGAGACAUGAAGAAGGCAGCUGCAGCUUGCUGUGGAGACCCCGUGGCUUGGAAUUCUCGGGUGCCAA | 0.297
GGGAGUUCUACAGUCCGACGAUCGCCUGUCUCAAGCUCUUCCUUACUCCCAGGCACUGUCUUAAGGCAUCUGACAUGCAUCAUCUCAUUUAAUCCUCCCUUCCUCCCUAUUAACCUAGAGAUUGUUUUUGUUUUGGAAUUCUCGGGUGCCAA | 2.78
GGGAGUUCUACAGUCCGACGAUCUGGGAUUACAAUGAAUGUAAGCCCAAAUUGUGGAAUUGCCAGUAACCUGGAUGGGGAAAAGCAUUUCCCAUAGCACUCCAUGUAAUAUGAGUGCUCUGUGAGAUGUUCAUUGGAAUUCUCGGGUGCCAA | 0.274
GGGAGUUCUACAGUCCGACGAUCUCCUUGCUAAAAAGGGUUCCAUCUCCUUUAAGGACGUUUUAUUUUUGAUCCAGAGUCCUUGUUUCCUUGACUUGCUCCACCAGCCCUGCACCAGCUUUCCAAAUGCACUCUGGAAUUCUCGGGUGCCAA | 3.12
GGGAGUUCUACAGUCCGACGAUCUCCCACCUCCCUCGCUCGCUAGUCUCGGCCGGACUUGGAAGACACUGAGAAUGUCCCCCCCAAUGGCCUCCGCCAUCCAGAACUUGGUACAUAUUCUGGUGGCUCCCUGCUGGAAUUCUCGGGUGCCAA | 0.931
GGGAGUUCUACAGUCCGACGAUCCGGGUCUCUUGCCUUGAGAUGGGGGGAGUCCUAGGAAGAAGAGUGGUCUGGUCCUGUUUCUGCAGACUGCUUGGCUCAGGGCUUCCUGAGAGACUUGAGAGGAACUGUCCUGGAAUUCUCGGGUGCCAA | 0.855
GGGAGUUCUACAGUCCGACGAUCUGAGGAUGGAAAGAGCCGUAAUGACGUUGGCCUUGCCGUGUUCCUUCUCCUCAGCGCCACACUCACAUAUUUCUCUGCUUUGGUUCUACAAUCUGUUGUUGAGUUCCCCCUGGAAUUCUCGGGUGCCAA | 0.459
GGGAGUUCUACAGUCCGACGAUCUGGUUGUGAUAUCAUAACUAAGAUCAGUCACCUCCCAGGAGUCUGCAGAGUUCUAGGUACACCACCCGUCUUAAUAUGGGAGCUCCCAUUCUGUAUCAAAAUGGACUGUUUGGAAUUCUCGGGUGCCAA | 0.378
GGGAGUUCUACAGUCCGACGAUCCUUACGUUUCCGUUUCUUCAUCGGCUGAUUGGAUGCUUACAGGGUUCUCUUGUGACAUGUAUAAGUGCUGCUUACAUCACUCAACAGCAACAGAACGUGGUAGUGGAGUAUGGAAUUCUCGGGUGCCAA | 0.28
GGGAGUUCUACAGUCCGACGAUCGUAUCUGAUGUUCAUUUAUUCCCAUGUUCUUGUGUGUCACAGUUCAGCCAGUUUUGGUUUAUGCCUAGAGCUACUUCAAGGAACUAGACUAAUUAGCUAUAUAGGCCCAGUGGAAUUCUCGGGUGCCAA | 0.373
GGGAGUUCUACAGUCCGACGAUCGUCUGCUUCCAGCCAGUCUGCAACAUCUAGCCAUACCUUUCUUAUGCAAGCCAUUCAGUUAUCAGGACUGUGAAUUAACACUGUAUGAAUACAUUUCUGUACACCUUAUUUGGAAUUCUCGGGUGCCAA | 0.664
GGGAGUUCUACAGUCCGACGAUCCCUGGGGACAUGUGGCUGCUCUAUUGUCUUACUGCGUCCCACAAUAUCUGAAUGUCUCAAUCCAAAACUUGAAGCUCUUUAGACCAAGAACUAGGGAGAGGAAAAAGGAGUGGAAUUCUCGGGUGCCAA | 0.284
